Results of several laboratories.
Numbered parts are unrelated; each lists some results of a single study. Changes are numbered by the printed parent chain.

Series 1 — target: CEBPE, bZIP domain (human); method: DHFR protein complementation; matrix: yeast; baseline: wild-type JUN-FOS pair; reading: higher = stronger binding
Setting: single substitutions, most at no-binding floor
Starting sequence: JUN, bZIP domain (human); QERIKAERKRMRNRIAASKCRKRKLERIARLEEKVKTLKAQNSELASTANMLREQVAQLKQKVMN; partner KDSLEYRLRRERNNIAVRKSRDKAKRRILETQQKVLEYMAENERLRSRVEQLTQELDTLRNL
Change	binding fitness [natural log]
L52G	-1.51
I28H	-1.22
Q41L	-1.23
R30W	-1.13
S43T	-0.951
S43W	-1.34
M51D	-1.11
Q55F	-1.49
E33K	-1.19
N42V	-1.5
L31N	-1.42
S47P	-1.55
L52D	-1.42
Q41Y	-1.45
E44H	-1.28

Series 2 — target: CCNB2, cyclin fold, Cln2 fusion (human); method: yeast growth competition, sequencing; matrix: yeast; setting: weak parent motif; baseline: not given; reading: higher = stronger binding
Starting sequence: DTL docking peptide (human); PSSMRKICTYFHR
Change	normalised enrichment score
PSAMRKICTYFHR [S3A]	0.326
PSSMRKICTAFHR [Y10A]	0.392
PSSMRKIATYFHR [C8A]	0.512
PSSMRKICTYFAR [H12A]	0.481
PASMRKICTYFHR [S2A]	0.415
ASSMRKICTYFHR [P1A]	0.341
PSSMRAICTYFHR [K6A]	0.326

Series 3 — method: DHFR PCA, deep sequencing; matrix: yeast; added: (+)-ABA 0 µM; baseline: wild-type fitted maximum; reading: higher = stronger binding
Target: ABI1, truncated, D143A, DHFR fusion (Arabidopsis thaliana)
Setting: methotrexate growth selection, single substitutions
Starting sequence: PYL1, truncated, DHFR fusion (Arabidopsis thaliana); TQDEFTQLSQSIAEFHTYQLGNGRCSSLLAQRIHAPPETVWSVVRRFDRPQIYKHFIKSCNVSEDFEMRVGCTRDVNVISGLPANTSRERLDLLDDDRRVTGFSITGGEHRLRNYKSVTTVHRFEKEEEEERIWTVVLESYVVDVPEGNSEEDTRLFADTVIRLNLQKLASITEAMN; partner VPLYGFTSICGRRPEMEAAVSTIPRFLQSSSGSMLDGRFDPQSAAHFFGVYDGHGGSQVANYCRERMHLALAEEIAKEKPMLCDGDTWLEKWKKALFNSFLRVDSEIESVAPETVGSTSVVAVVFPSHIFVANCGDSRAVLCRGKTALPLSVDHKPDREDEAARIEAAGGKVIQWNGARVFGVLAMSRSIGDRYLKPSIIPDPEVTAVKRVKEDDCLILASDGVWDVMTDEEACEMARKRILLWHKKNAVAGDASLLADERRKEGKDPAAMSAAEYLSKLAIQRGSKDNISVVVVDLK
Change	relative binding score
T17C	2.71%
E38Y	-3.01%
V136H	-6.74%
A13V	8.19%
V137E	2.33%
T86Y	20%
T39N	1.03%
V62P	-13.2%
L8R	-5.21%
S26T	27%
R99E	5.37%
F47T	-4.36%
L29E	1.77%
N61T	51.2%
D153Q	-0.71%
I52A	31.1%
R155L	5.09%
R69P	-4.19%

Series 4 — method: protein-binding microarray; form: double-stranded DNA, one strand shown; matrix: in vitro; tested at: 0.8 µM; setting: whole 60-bp probe, no competitor; reading: higher = stronger binding
Target: Centromere-binding protein 1, full length, N-terminal tag (CBF1, Saccharomyces cerevisiae, UniProt P17106, residues 1-351)
UniProt P17106, sequence (whole entry, looked up): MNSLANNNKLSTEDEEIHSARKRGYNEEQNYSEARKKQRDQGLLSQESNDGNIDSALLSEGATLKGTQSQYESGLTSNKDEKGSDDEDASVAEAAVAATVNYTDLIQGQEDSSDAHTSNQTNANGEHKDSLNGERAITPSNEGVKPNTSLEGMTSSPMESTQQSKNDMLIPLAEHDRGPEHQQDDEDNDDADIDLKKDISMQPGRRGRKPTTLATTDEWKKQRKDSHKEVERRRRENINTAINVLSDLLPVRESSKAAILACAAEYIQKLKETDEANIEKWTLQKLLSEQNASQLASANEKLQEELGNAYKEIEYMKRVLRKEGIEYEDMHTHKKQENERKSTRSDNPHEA
Strand	fluorescence intensity
CTATAAACTCTCGAGGATCTGATGTTGATTTTTTTCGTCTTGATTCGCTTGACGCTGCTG	483 a.u.
CCTAACTACTATATGCACGTGCAATAGCTTCGTACAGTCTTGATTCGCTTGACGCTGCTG	11000 a.u.
CTACGAAAAGGTGCTCACGTTATAAGGCTAACATTCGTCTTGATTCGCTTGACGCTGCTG	671 a.u.
CTATTGTTCGCAACCCACGTCTTGACCGACGGTTTCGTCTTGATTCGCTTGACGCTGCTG	499 a.u.
GAACCGGGAAGGTAACACATGAATATGCTGTGTTAGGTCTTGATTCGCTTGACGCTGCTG	528 a.u.
CTAATGCTTTGATCTGCTGATGTAGCAATGTTTTTCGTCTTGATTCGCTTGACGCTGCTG	686 a.u.
GAATCTAATAGGAGTCACGTGGTTCCATCGTTTTAGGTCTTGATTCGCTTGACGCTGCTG	20200 a.u.
GAACTTCAACACTCTCACGAGTTTAATTCAAATTAGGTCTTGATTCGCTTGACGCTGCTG	567 a.u.
CCTAACTACTATATAAGTGTGATATAGCTTCGTACAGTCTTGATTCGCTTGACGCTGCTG	557 a.u.
CTATAAAGCAGAACAGGTGAGTCAGAAGACTTATTCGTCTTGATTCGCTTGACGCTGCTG	623 a.u.
GAATTGAAAAATTGAAGTCTGATGTGAATTTGATAGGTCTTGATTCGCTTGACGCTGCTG	563 a.u.
GAACGAGAAAATGCTCATCTGATTAGAAATGCGTAGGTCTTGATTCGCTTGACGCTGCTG	783 a.u.
GAACGTCAGCTTTGTCACGTATTCAACTGTAACTAGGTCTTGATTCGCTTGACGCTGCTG	597 a.u.
CCTAACTACTATAATAGCGTCACATAGCTTCGTACAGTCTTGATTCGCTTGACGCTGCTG	514 a.u.
GAAGACTTTTTATTCCTCGTGGCAAAGAATGGCTAGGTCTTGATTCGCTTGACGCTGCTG	762 a.u.
CTACGGCGGAAGGCACAGGAGATACCCCCACTATTCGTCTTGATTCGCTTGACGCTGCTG	494 a.u.

Series 5 — method: universal PBM; form: double-stranded DNA, one strand shown; matrix: in vitro; tested at: 600 nM; reading: higher = stronger binding
Target: Sal-like protein 4, full length isoform A (SALL4, Homo sapiens, UniProt Q9UJQ4, residues 1-1053)
UniProt Q9UJQ4, sequence (whole entry, looked up): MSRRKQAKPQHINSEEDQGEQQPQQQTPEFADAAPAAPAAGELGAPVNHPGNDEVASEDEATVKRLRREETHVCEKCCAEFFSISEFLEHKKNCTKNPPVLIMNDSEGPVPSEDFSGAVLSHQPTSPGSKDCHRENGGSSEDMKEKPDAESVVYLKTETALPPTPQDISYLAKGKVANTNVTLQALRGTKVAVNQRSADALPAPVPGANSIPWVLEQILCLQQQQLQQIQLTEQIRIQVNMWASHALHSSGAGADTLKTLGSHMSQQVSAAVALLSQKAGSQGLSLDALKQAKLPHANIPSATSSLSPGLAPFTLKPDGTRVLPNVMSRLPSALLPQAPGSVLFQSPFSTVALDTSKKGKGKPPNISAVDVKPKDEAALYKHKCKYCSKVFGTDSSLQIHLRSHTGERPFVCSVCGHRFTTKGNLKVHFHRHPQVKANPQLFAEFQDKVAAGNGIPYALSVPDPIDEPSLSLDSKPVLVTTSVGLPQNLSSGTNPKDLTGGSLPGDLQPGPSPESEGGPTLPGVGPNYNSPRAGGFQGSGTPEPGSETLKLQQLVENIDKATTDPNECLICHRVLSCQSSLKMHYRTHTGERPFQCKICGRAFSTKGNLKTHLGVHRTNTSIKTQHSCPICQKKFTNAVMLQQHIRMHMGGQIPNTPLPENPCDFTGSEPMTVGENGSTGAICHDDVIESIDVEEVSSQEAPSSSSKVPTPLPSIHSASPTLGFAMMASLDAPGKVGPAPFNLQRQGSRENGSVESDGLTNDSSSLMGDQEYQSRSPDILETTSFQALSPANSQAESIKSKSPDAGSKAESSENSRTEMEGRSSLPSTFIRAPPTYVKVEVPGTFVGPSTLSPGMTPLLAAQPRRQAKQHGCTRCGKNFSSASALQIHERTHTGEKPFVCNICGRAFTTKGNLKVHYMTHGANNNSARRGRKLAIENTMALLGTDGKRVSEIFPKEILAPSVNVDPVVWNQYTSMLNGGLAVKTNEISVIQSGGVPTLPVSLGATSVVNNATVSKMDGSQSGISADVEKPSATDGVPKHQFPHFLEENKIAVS
Setting: 8-mer, flanks averaged, mean of replicates
Strand	E-score
ATCGTGGA	0.0328
AAGCCGTG	-0.0572
CCGAGCCG	-0.282
CATGTCGA	-0.064
AACCTTAA	0.155
GAAATAAA	0.292
ACCATAGA	0.0492
ATTGGGTG	0.0504
ATATAAGC	0.289
CGATAGCG	-0.0287
ACATAACG	0.266
ACGGGGTG	-0.253
GTCTTAGA	-0.0436
TCCTGTAA	0.171
CACTTACC	0.0399
CGTCTCGC	-0.221
AATGATGA	0.269
CTATGGCA	0.113
AGAGCTTC	-0.171
GAATCGAA	0.18
GGACGCAA	-0.225
GTTGTCAA	-0.0276
AACTAGGC	-0.0926
ATCCAGAT	-0.0547
ACAAAATG	0.257

Series 6 — method: protein-binding microarray; form: double-stranded DNA, one strand shown; matrix: in vitro; tested at: not given; reading: higher = stronger binding
Target: Hepatocyte nuclear factor 3-beta, forkhead domain (FOXA2, Homo sapiens, UniProt Q9Y261, residues 142-269)
Setting: k-mer, scored over probes, only values ≥0.25
Target sequence (chain): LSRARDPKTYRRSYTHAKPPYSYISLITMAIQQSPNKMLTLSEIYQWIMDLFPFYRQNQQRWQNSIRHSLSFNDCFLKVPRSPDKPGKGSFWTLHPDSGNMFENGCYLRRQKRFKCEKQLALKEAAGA
Strand	E-score
AAAGAATA	0.269
TACAGTGA	0.274
ATCTACAG	0.265
AGAATATA	0.281
TAATCACA	0.284
GGTTGTAA	0.308
ATGTCTAA	0.31
CAAACACA	0.402
ATGTTATA	0.365
ACAACAAC	0.28
GTACAATA	0.298
AATGCAGA	0.265
ATCACAAG	0.272
TAAGTCAA	0.255
TAAGTATA	0.295
AACAGTAT	0.347
ATACACTA	0.327
TACGTAAA	0.315

Series 7 — method: protein-binding microarray; form: double-stranded DNA, one strand shown; matrix: in vitro; tested at: 2200 nM top; setting: 60-bp whole probe; added: salmon DNA 0.4 mg/ml; baseline: random background probes; reading: higher = stronger binding; all sequences stand within: GCCTAGCAC … GTCTTGATTCGCTTGACGCTGCTG
Target: Interferon regulatory factor 7, full length, phosphomimetic (IRF7, Homo sapiens, UniProt Q92985, residues 1-503, S471D/S472D/S475D/S476D/S477D/S483D/S484D/S487D)
Residues (chain): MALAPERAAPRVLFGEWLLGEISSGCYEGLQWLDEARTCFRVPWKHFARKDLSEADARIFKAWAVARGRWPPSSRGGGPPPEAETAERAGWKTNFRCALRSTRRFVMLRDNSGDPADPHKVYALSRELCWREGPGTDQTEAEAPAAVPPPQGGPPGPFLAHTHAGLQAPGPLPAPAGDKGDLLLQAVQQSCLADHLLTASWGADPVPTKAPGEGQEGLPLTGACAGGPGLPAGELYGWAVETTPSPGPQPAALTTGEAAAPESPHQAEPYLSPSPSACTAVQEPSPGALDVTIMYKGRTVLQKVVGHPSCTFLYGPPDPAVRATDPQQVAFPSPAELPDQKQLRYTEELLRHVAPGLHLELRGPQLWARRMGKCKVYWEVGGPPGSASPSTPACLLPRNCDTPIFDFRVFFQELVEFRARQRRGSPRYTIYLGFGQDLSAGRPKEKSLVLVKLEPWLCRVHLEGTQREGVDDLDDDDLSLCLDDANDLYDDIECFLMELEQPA
Strand	fitted relative affinity [z-score]
CTCCTTCTCTAACCTCTCTAAGTGCTA	1.73
TTAGATCTCAGACTGGGTTAGTGCTAG	-0.332
GACGAACTGGGGATTCGAGACGTGCTA	0.153
ATAGGTTTCGGGACTGGGTTAGTGCTA	3.49
TTAGGTATCGGACTGGGTTCGTGCTAG	0.151
GACGGTCTCGTTCTCGGGACGTGCTAG	0.347
GACGAACTGGGGTATCGAAACGTGCTA	0.477
GGGTGAATGTGTCTTAAATAGTGCTAG	-0.191
TGGATGGTCCTGGTTTCATGGGTGCTA	0.0239
GAGGATCTCAGTATCGAGACGTGCTAG	-0.0574
TCATGTTTTGTTTTTCAACTGTGCTAG	3.3
TCAGGTATTTTTTTCTAACTGTGCTAG	0.637
TTTACTCTCTACATGGGTATGTGCTAG	1.33
GACGTTTTCGGGACTGGGGACGTGCTA	3.33
TCAGCCCTCGGTTTACAACTGTGCTAG	2.5
GACGCACTGGGACTGGGGACGTGCTAG	-0.538

Some of these lines once more (series 3):
Change	relative binding score
I52A	31.1%
F47T	-4.36%
L8R	-5.21%
V137E	2.33%
V136H	-6.74%
L29E	1.77%
R69P	-4.19%
T17C	2.71%
D153Q	-0.71%
